Experimental data collected from several papers.
Each line is one published result; not all experiments were run side by side. ± marks the error that the study gave.
Melanocortin receptor 5: Melanocortin receptor 5 (Mus musculus, UniProt P41149)
Chain of UniProt P41149 (whole entry, looked up): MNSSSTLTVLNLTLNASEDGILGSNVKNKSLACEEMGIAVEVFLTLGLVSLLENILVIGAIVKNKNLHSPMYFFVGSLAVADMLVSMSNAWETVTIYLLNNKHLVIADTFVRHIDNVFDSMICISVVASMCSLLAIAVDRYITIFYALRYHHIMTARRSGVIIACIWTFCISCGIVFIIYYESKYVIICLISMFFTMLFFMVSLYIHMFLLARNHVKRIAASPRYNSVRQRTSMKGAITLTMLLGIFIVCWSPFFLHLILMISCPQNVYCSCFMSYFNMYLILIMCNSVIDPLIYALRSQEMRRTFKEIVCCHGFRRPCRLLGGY
Chain of UniProt Q80W57 (whole entry, looked up): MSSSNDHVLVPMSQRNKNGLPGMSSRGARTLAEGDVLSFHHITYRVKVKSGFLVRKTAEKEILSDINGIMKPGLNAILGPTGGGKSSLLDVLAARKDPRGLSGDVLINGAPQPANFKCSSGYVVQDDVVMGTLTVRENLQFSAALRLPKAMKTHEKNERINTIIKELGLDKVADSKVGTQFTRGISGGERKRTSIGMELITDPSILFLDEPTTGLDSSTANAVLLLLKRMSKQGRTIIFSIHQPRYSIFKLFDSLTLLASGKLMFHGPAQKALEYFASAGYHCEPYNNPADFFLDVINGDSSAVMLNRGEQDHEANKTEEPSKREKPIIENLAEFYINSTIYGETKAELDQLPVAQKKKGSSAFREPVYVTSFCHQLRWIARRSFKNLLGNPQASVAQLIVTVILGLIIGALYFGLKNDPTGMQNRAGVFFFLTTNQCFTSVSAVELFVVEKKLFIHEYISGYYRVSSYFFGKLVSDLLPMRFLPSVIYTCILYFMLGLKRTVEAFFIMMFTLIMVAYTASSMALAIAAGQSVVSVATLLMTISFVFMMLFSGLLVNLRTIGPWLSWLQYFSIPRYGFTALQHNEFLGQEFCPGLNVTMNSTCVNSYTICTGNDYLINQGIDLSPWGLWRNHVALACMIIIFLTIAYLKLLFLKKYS

| Molecule | tested on | assay | test system | conditions | measurement | value |
| --- | --- | --- | --- | --- | --- | --- |
| C[C@H](NC(=O)[C@]1(Cc2ccccc2)CCN1C(=O)N[C@@H](C)c1ccccc1)C(N)=O | HEL | microscopic cell morphology |  |  | minimum cytotoxic concentration | > 100 µM |
| O=CCCCC=O | cysteine peptide Ac-RFAACAA-COOH | peptide depletion, DPRA RapidFire-MS/MS |  | 24 h, pH 7.5, room temperature, together with: 5.0 µM cysteine peptide | IC50 | 1030 µM |
| Cc1nc(C(NC(=O)c2ccc(-c3ccc(Cl)cc3)[nH]2)C2CCCCN2)sc1CO (mixture of isomers) | U87.CD4.CXCR4 | cell growth or viability, XTT |  | 72 h | CC50 | ~25 µM |
| CCCCCCCCCCCCCNCC(=O)N(CC(=O)N(CCCCN)CC(=O)N(CCN)CC(=O)N(CC(N)=O)Cc1ccc(F)cc1)Cc1ccc(F)cc1 | human red blood cells | hemolysis |  | 1 h | HC10 | 59 ± 22 µg/mL |
| C[C@@]1(O)[C@H](O)[C@@H](CO)O[C@H]1n1ccc(N)nc1=O | J2 human intestinal enteroids | cell viability, CellTiter-Glo |  | 24 h | CC50 | > 316 µM |
| CCCCc1cn(-c2nc(O)c3ncn([C@H]4C[C@H](O)[C@@H](CO)O4)c3n2)nn1 | HEL | cell morphology |  |  | minimum cytotoxic concentration | > 270 µM |
| CC(C)[C@H](NC(=O)[C@@]1(Cc2ccccc2)CCN1C(=O)OCc1ccccc1)C(N)=O | HEL | microscopic cell morphology |  |  | minimum cytotoxic concentration | > 100 µM |
| CSCC[C@H](NC(=O)[C@H](CO)NC(=O)[C@H](Cc1ccc(O)cc1)NC(=O)[C@H](CO)NC(C)=O)C(=O)N[C@@H](CCC(=O)O)C(=O)N[C@@H](C)C(=O)N[C@@H](Cc1ccccc1)C(=O)N[C@@H](CCCNC(=N)N)C(=O)N[C@@H](Cc1c[nH]c2ccccc12)C(=O)NCC(=O)N[C@@H](CCCCN)C(=O)N1CCC[C@H]1C(=O)N[C@H](C(N)=O)C(C)C | Melanocortin receptor 5 |  |  |  | EC50 | 0.9 ± 0.35 µM |
| C[C@H](NC(=O)[C@@]1(Cc2ccccc2)CCN1C(=O)OCc1ccccc1)C(=O)NC(C)(C)C | HEL | microscopic cell morphology |  |  | minimum cytotoxic concentration | > 100 µM |
| CCCCCCCCCCCCCNCC(=O)N(CCCCCC)CC(=O)N(CCCCN)CC(=O)N(CCN)CC(=O)N(CCCCCC)CC(N)=O | HepG2 | cytotoxicity, MTT |  | 72 h | TD50 | 61 ± 9 µg/mL |
| C=C(C[C@H](N)C(=O)O)C(=O)Nc1ccc(Cl)cc1 | SK-BR-3 | necrosis |  | 24 h | EC50 | 263 µM |
| NC(=O)[C@H](Cc1ccccc1)NC(=O)[C@]1(Cc2ccccc2)CCN1C(=O)OCc1ccccc1 | HEL | microscopic cell morphology |  |  | minimum cytotoxic concentration | 100 µM |
| CONC(=N)c1ccc(-c2ccc(-c3ccc(C(=N)NOC)cn3)o2)cc1 | KLE | cell growth or viability |  | 50 µM, 72 h | viability | 16% |
| Nc1nc(O)c2ncn(COC(CO)CO)c2n1 | HEL | cell morphology |  |  | minimum cytotoxic concentration | > 350 µM |
| Nc1ccn(C[C@@H](CO)OCP(=O)(O)O)c(=O)n1 | HFF primary foreskin fibroblasts | cell viability, CellTiter-Glo |  |  | CC50 | 110 µM |
| O=C(Nc1nc2ccccc2[nH]1)c1cc(Cl)ccc1Cl | BV-2 |  |  | 24 h | highest non-cytotoxic concentration | 100 µM |
| C[C@@H](NC(=O)[C@]1(Cc2ccccc2)CCN1C(=O)OCc1ccccc1)C(N)=O | HEL | microscopic cell morphology |  |  | minimum cytotoxic concentration | > 100 µM |
| Cc1cc(C)cc(C(=O)Nc2cc(Cl)c(S(N)(=O)=O)cc2S(N)(=O)=O)c1 | BHK-21 | cell growth or viability, MTT |  | 100 µM, serum-free | viability | 48% |
| CCCCCCCCCCCCCNCC(=O)N(CC(=O)N(CCCC[N+](C)(C)C)CC(=O)N(CC[N+](C)(C)C)CC(=O)N(CC(N)=O)C1CCCCC1)C1CCCCC1 | HepG2 | cytotoxicity, MTT |  | 72 h | TD50 | > 200 µg/mL |
| CSCC[C@H](NC(=O)[C@H](CO)NC(=O)[C@H](Cc1ccc(O)cc1)NC(=O)[C@H](CO)NC(C)=O)C(=O)N[C@@H](CCC(=O)O)C(=O)N[C@@H](Cc1c[nH]cn1)C(=O)N[C@@H](Cc1ccccc1)C(=O)N[C@@H](CCCNC(=N)N)C(=O)N[C@@H](Cc1c[nH]c2ccccc12)C(=O)NCC(=O)N[C@@H](CCCCN)C(=O)N1CCC[C@H]1C(=O)N[C@@H](C)C(N)=O | Melanocortin receptor 5 |  |  |  | EC50 | 0.03 ± 0.025 µM |
| CN(C)c1cccc(C(=O)Nc2nc3ccccc3[nH]2)c1 | BV-2 |  |  | 24 h | highest non-cytotoxic concentration | 300 µM |
| COc1ccc2[nH]cc(CCNC(C)=O)c2c1 | parental MDCK-II cells |  |  | 10 µM, 4 h | efflux ratio | 0.99 ± 0.07 |

| Molecule | tested on | assay | test system | conditions | measurement | value |
| --- | --- | --- | --- | --- | --- | --- |
| C[C@H](NC(=O)[C@H](Cc1ccccc1)NC(=O)OCc1ccccc1)C(N)=O | HEL | microscopic cell morphology |  |  | minimum cytotoxic concentration | > 100 µM |
| O=C(c1cc(Cc2n[nH]c(=O)c3ccccc23)ccc1F)N1CCN(C(=O)C2CC2)CC1 | SK-BR-3 | necrosis |  | 24 h | EC50 | > 316 µM |
| CCCCCCCCCCCCCNCC(=O)N(CC(=O)N(CCCCN)CC(=O)N(CCN)CC(=O)N(CC(N)=O)Cc1ccco1)Cc1ccco1 | HepG2 | cytotoxicity, MTT |  | 72 h | TD50 | 143 ± 94 µg/mL |
| O=C(O)c1cc(/N=N/c2ccc(S(=O)(=O)Nc3ccccn3)cc2)ccc1O | Abcg2 (Rattus norvegicus, UniProt Q80W57) | substrate | male Sprague-Dawley rat, plasma | oral, 2 mg/kg | AUC(0-t) | 183 ± 84 ng·h/mL |
| COC(=O)c1[nH]cc2c1[C@@]1(CN(C)c3ccccc31)c1[nH]c3ccc(Cl)cc3c1-2 (racemic) | HepG2 | cytotoxicity |  |  | CC50 | > 50 µM |
| CCCCOc1c2cc(C(=O)Nc3cc(C(=O)O)cc(C(=O)OCc4ccccc4)c3)cc1Cc1cc(C(=O)Nc3cc(C(=O)O)cc(C(=O)OCc4ccccc4)c3)cc(c1OCCCC)Cc1cc(C(=O)Nc3cc(C(=O)O)cc(C(=O)OCc4ccccc4)c3)cc(c1OCCCC)Cc1cc(C(=O)Nc3cc(C(=O)O)cc(C(=O)OCc4ccccc4)c3)cc(c1OCCCC)C2 | MT2 | cell growth or viability |  |  | IC50 | > 50 µM |
| Cc1cc(C)cc(C(=O)NC(=S)Nc2ccccc2O)c1 | BHK-21 | cell growth or viability, MTT |  | 100 µM, serum-free | viability | 56% |
| OC[C@H]1O[C@@H](n2cnc3c(O)nc(-n4cc(-c5ccccc5)nn4)nc32)[C@H](O)[C@@H]1O | HEL | cell morphology |  |  | minimum cytotoxic concentration | 240 µM |
| C=C(C[C@H](N)C(=O)O)C(=O)Nc1ccc(F)cc1 | SK-BR-3 | necrosis |  | 24 h | EC50 | 0.182 µM |
| VQWRAIRVRVIR | human red blood cells | haemolysis | peptide | 4 h, pH 7.4, 25 °C | minimum haemolytic concentration | > 2000 µg/mL |
| C[C@H](NC(=O)[C@]1(Cc2ccccc2)CCN1C(=O)Oc1ccccc1)C(N)=O | HEL | microscopic cell morphology |  |  | minimum cytotoxic concentration | > 100 µM |
| CCCC[C@H](NC(C)=O)C(=O)N[C@H]1CCC(=O)NC[C@@H](C(=O)N[C@@H](Cc2c[nH]c3ccccc23)C(N)=O)NC(=O)[C@H](CCCNC(=N)N)NC(=O)[C@@H](Cc2ccccc2)NC(=O)[C@H](Cc2c[nH]cn2)NC1=O |  |  | Sprague Dawley rat, male, plasma | subcutaneous, 25.0 mg/kg daily, day 28 | AUC(0-t) | 12600 ng·h/mL |
| O=C1CCc2ccccc2O1 | cysteine peptide Ac-RFAACAA-COOH | DPRA RapidFire-MS/MS |  | 24 h, pH 7.5, together with: 5.0 µM cysteine peptide | maximal peptide depletion | -56.7% |
| C[C@H]1[C@H](C)CC[C@]2(C(=O)O)CC[C@]3(C)C(=CC[C@@H]4[C@@]5(C)CC[C@H](O)C(C)(C)[C@@H]5CC[C@]43C)[C@H]12 | MARC145 | cell growth or viability, MTT |  | 48 h | CC50 | 65.3 µM |
| COc1cc(/C=C2\CC/C(=C\c3ccc(O)c(OC)c3)C2=O)ccc1O | BHK-21 | cell growth or viability, CCK-8 |  | 24 h | CC50 | 87.4 µM |
| Cc1c(O)cc(C[C@]23C[C@H](C[C@H](C)O2)c2c4c(c(O)c(C)c2O3)CO[C@@]2(C4)C[C@@H](O)C[C@H](C)O2)c(C=O)c1O | NCI-H1975 | cell growth or viability |  |  | IC50 | 14.3 µM |
| CC1=C(CO)C(=O)O[C@@H]([C@@H](C)[C@H]2CC[C@H]3[C@@H]4C[C@H]5O[C@]56[C@@H](O)C=CC(=O)[C@]6(CO)[C@H]4CC[C@]23C)C1 | MRC-5 | cytotoxicity, MTS |  |  | IC50 | 12.1 ± 0.42 µM |
| CCCCCCN(CCCCCC)CC(=O)N(CC(=O)N(CCCCN)CC(=O)N(CCN)CC(=O)N(CC(N)=O)C1CCCCC1)C1CCCCC1 | HepG2 | cytotoxicity, MTT |  | 72 h | TD50 | > 200 µg/mL |
| Cc1cc(C)cc(C(=O)NC(=S)Nc2cc(Cl)c(O)c(Cl)c2)c1 | BHK-21 | cell growth or viability, MTT |  | 100 µM, serum-free | viability | 59% |
| O=C(Nc1nc2ccccc2[nH]1)c1ccc(Cl)c(Cl)c1 | BV-2 |  |  | 24 h | highest non-cytotoxic concentration | 100 µM |
| Cc1cc(C)cc(C(=O)Nc2cc(Br)cc(C(F)(F)F)c2)c1 | BHK-21 | cell growth or viability, MTT |  | 100 µM, serum-free | viability | 48% |
| O=S(=O)(O)c1cc(N=C=S)ccc1C=Cc1ccc(N=C=S)cc1S(=O)(=O)O | human red blood cells |  |  | 10 µM, 0 °C, together with: 20 µM valinomycin | chloride permeability | 0.00045 mmol/kg Hb/min/mM |
